Assay results of several laboratories.
Parts stem from different laboratories: compare values within a part only. Numbers after ± are the reported error. Values after ≈ are worked out from the molar mass of the structure shown.
UniProt P21127, sequence (whole entry, looked up): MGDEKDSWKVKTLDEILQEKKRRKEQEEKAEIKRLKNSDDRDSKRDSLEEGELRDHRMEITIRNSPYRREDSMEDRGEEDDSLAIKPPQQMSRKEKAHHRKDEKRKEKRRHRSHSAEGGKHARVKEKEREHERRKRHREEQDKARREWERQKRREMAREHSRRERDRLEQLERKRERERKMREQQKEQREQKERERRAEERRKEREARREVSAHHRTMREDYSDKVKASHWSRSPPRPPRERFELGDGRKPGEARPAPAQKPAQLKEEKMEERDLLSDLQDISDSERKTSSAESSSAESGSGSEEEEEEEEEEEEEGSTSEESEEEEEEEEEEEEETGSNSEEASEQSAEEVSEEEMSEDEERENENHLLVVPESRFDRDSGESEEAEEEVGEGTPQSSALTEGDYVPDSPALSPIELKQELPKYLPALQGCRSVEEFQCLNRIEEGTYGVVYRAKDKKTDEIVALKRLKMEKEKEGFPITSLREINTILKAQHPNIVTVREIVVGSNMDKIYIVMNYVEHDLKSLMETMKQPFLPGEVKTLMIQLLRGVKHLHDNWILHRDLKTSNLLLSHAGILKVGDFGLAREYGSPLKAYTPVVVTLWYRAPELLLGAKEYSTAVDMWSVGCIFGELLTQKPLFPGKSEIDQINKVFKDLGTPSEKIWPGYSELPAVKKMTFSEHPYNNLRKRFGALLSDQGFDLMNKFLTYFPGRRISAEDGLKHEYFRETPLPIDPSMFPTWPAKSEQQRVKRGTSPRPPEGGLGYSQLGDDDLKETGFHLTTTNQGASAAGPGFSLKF
UniProt P25929, sequence (whole entry, looked up): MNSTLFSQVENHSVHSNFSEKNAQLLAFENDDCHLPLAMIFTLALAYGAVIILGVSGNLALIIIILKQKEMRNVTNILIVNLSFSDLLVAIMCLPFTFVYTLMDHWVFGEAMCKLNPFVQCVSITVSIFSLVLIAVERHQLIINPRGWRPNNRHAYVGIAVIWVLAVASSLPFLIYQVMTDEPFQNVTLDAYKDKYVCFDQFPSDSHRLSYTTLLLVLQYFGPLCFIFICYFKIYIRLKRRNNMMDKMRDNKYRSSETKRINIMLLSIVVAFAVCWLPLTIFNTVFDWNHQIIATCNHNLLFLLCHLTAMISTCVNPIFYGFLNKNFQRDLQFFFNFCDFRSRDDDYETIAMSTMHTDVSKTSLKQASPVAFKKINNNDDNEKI
UniProt P34913, sequence (whole entry, looked up): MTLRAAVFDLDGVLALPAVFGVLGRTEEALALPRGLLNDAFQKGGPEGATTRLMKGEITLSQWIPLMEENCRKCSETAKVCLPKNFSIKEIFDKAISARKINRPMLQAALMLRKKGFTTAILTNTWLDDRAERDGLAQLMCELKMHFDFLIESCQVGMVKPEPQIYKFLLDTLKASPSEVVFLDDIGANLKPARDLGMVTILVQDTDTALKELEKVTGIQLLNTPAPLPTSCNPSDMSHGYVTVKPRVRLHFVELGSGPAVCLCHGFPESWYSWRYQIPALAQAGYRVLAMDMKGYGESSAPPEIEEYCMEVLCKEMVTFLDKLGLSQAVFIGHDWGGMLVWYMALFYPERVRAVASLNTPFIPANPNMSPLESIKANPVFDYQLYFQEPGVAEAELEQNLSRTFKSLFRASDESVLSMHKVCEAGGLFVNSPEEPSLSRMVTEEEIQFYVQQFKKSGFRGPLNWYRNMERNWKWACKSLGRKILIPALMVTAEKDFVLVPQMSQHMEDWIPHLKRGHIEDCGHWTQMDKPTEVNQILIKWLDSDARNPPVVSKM
UniProt Q86U86, sequence (whole entry, unmodified, looked up): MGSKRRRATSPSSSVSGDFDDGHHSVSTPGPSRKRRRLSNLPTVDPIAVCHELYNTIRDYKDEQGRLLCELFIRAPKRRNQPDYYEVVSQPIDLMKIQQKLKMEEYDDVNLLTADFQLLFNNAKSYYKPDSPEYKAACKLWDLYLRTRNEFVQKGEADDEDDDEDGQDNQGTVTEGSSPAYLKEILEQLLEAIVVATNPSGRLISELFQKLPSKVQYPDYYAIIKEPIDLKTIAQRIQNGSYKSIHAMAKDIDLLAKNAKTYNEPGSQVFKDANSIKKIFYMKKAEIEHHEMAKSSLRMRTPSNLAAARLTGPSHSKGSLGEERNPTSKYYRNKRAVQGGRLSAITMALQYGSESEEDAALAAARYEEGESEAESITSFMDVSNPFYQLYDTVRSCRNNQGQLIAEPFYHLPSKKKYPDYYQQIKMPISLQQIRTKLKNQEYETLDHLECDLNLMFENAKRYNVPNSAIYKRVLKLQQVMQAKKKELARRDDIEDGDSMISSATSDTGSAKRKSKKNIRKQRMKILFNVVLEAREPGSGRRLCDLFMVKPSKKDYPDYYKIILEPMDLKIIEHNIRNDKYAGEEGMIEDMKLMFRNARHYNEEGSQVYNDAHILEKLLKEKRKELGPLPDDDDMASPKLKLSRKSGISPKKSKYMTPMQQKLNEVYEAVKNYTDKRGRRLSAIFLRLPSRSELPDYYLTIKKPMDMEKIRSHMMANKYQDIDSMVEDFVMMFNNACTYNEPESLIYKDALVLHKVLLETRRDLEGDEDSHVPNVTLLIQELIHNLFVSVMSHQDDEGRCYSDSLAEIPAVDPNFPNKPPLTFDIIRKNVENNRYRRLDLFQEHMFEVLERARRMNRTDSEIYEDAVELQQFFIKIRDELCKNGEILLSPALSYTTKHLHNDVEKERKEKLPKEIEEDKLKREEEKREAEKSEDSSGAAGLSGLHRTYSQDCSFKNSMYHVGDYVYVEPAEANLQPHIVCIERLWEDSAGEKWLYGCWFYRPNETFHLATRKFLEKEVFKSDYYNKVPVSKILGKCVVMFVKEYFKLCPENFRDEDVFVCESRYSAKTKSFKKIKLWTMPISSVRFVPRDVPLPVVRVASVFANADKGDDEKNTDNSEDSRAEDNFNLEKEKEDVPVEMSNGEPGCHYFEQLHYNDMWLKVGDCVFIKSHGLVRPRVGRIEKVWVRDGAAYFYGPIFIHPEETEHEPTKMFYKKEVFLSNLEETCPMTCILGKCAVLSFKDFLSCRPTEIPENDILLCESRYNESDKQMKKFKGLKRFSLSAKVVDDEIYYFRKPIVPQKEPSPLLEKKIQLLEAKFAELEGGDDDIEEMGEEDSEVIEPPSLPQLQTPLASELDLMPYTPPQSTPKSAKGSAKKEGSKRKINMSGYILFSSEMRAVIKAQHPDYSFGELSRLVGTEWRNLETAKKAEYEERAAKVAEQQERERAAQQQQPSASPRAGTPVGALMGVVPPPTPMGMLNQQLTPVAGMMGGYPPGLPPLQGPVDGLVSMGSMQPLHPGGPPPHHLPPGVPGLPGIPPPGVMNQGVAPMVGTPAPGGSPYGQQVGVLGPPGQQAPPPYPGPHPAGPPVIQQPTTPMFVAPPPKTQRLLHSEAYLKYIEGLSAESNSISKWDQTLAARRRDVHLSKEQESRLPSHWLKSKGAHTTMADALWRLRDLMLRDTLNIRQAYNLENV

Set 1
SMILES: Cc1cc(OCc2nnc(SC3CCCC3)n2-c2cccnc2)ccc1-c1ccc(S(C)(=O)=O)cc1
Quantity: CC50
OVCAR-5: 8.51 µM
TK-10: > 100 µM
UO-31: 5.21 µM
M14: > 100 µM
NCI-H460: 22.2 µM
KM12: 9.4 µM
RXF 393: 6.26 µM
SK-OV-3: > 100 µM

Other studies, line by line
Cc1ccccc1Oc1cc(-n2c(=O)cc(C(F)(F)F)[nH]c2=O)c(OC(F)(F)F)cc1C#N
IC50 (U-87 MG): 6 µM

human neuropeptide Y
cAMP level (NPY1R (Homo sapiens, UniProt P25929); agonist, ELISA; SK-N-MC cells; 10 nM, 1 h, 37 °C, added: forskolin 10 µM; reference: forskolin-stimulated saline-treated cells): 41.6 ± 6.9%

N#Cc1ccc(-c2csc(CNC(=O)C34CC(CN(C(=O)COCCF)C3)C4)n2)cc1
CLint (human, both sexes, liver microsomes; 0.5 µM): < 3 µL/min/mg

CC[C@@H]1C(=O)N(C)c2cnc(Nc3ccc(C(=O)NC4CCN(C)CC4)cc3OC)nc2N1C1CCCC1
ΔTm (Protein polybromo-1, BD6 (PBRM1, Homo sapiens, UniProt Q86U86); thermal stabilisation, thermal shift; 10 µM): 0.14 ± 0.15 °C

O=C(Nc1ccc(-c2ccc3ccccc3n2)cc1)C1CCN(Cc2cccc(F)c2)CC1
solubility (sodium phosphate buffer, 1% DMSO; pH 7.4): 31 to 63 µM (≈ 13.6 to 27.7 µg/mL)

Cc1ccc(S(=O)(=O)Nc2c(N3CCC(NC(=O)Nc4ccc(Cl)c(C(F)(F)F)c4)CC3)c(=O)c2=O)cc1
IC50 (EPHX2 (Homo sapiens, UniProt P34913)): 0.004 ± 0.0003 µM

C#Cc1cccc(Nc2ncnc3cc(OCCOC)c(OCCOC)cc23)c1
viability (PC-3; MTT; 25 µg/mL, RPMI medium with 2% serum): 3.83%

CNc1ncc2c(/C=C/C(=O)N3CCC(OC)CC3)nn(Cc3cccc(C(F)(F)F)c3)c2n1
remaining activity (Cyclin-dependent kinase 11B, with cyclin K (CDK11B, Homo sapiens, UniProt P21127); 1 µM): 112%

A few entries again (other studies, line by line):
C#Cc1cccc(Nc2ncnc3cc(OCCOC)c(OCCOC)cc23)c1
viability (PC-3; MTT; 25 µg/mL, RPMI medium with 2% serum): 3.83%
